Results of several laboratories.
Protocols differ between the studies behind these lines. “And” joins repeats or separate records; there may be more than shown. ± marks the error that the study gave.
UCHL1: Ubiquitin carboxyl-terminal hydrolase isozyme L1 (UCHL1, Homo sapiens, UniProt P09936)
BEST1: BEST1 (Homo sapiens, UniProt O76090)
Voltage-dependent P/Q-type calcium channel subunit alpha-1A: Voltage-dependent P/Q-type calcium channel subunit alpha-1A (Homo sapiens, UniProt O00555)
ADRA2C: Alpha-2C adrenergic receptor (ADRA2C, Homo sapiens, UniProt P18825)

| SMILES | tested on | test | system | conditions | scale | endpoint | value |
| --- | --- | --- | --- | --- | --- | --- | --- |
| CC(CC(=O)NC(CC(=O)O)c1cc([N+](=O)[O-])ccc1Cl)c1ccccc1 (centres unmarked) | UCHL1 | covalent, intact protein LC-MS | – | 12.5 µM | – | labelling | 13.8% |
| CCCCC[C@H](O)/C=C/[C@H]1C(=O)C[C@H](O)[C@@H]1C/C=C\CCCC(=O)O | Prostaglandin D2 receptor (PTGDR, Homo sapiens, UniProt Q13258, D262A) | agonist | – | 1.25 µM | – | activation | 88.3% |
| N#CC(=Cc1cccc2ccccc12)C(=O)NCc1ccc(Cl)cc1 | UCHL1 | covalent, intact protein LC-MS | – | 12.5 µM | – | labelling | 10.7% |
| CC1(C)CCC2=C(O1)c1ccccc1C(=O)C2=O | Toxoplasma gondii | parasite growth | HFF, bradyzoite, alkaline-induced | – | – | EC90 | 4820 µM |
| CCN(CCO)CCCC(C)Nc1ccnc2cc(Cl)ccc12 (centres unmarked) | Sodium channel protein type 5 subunit alpha (SCN5A, Homo sapiens, UniProt Q14524) | sodium current | – | 30 µM | – | inactivation V1/2 | -86.2 ± 4.5 mV |
| O=C(O)c1ccc([N+](=O)[O-])cc1 | BEST1 | whole-cell patch clamp | HEK293 transiently expressing channel | concentration not given, membrane potential 60 mV | – | current density | 66.7 pA/pF and 59.6 pA/pF and 36.6 pA/pF and 78.5 pA/pF and 36.2 pA/pF and 74.2 pA/pF and 108 pA/pF |
| O=c1nc(SCc2cc(F)cc(C(F)(F)F)c2)nc(SCc2ccc3nc(Cl)ccc3c2)[nH]1 | DNA topoisomerase 2-alpha (TOP2A, Homo sapiens, UniProt P11388) | DNA cleavage | – | 31.25 µM | – | mean linear DNA | 0% |
| Cc1c(C(=O)Nc2ccccc2C(=O)O)oc2c1C(O)CC(C)(C)C2 (centres unmarked) | Beta-1,4-galactosyltransferase 1 (B4GALT1, Homo sapiens, UniProt P15291) | enzyme activity, inhibitor, UDP-Glo | – | 100 µM | lower means stronger inhibition | luminescence | 67800 a.u. |
| CCCN(CCC)CCc1cccc2c1CC(=O)N2 | Voltage-dependent P/Q-type calcium channel subunit alpha-1A | ion current, antagonist, automated patch clamp | – | – | – | IC30 | > 30 µM |
| CC(=O)Nc1c(F)ccc(NS(=O)(=O)c2cccc(Cl)c2O)c1F | malate dehydrogenase | enzyme activity, inhibitor | – | 200 µM, pH 7.0, 1% DMSO, aggregation counter-screen | – | remaining activity | 83% |
| O=C(CCl)N1N=C(C=Cc2ccco2)CC1c1ccco1 (centres unmarked) | UCHL1 | covalent, intact protein LC-MS | – | 12.5 µM | – | labelling | 11.6% |
| O=C(O[C@]12C[C@H]3C[C@H](C[C@H](C3)C1)C2)c1ccc(NCc2cc(O)ccc2O)cc1 | Toxoplasma gondii | parasite growth | HFF, bradyzoite, glutamine-induced | – | – | EC90 | 5 µM |
| COc1cc(Nc2ncc3c(n2)-c2ccc(Cl)cc2C(c2c(F)cccc2OC)=NC3)ccc1C(=O)O | MAPK3 | kinase activity | – | 1 µM | – | remaining activity | 109% |
| Cc1cc(NC(=O)C23CC4CC(C2)CC(n2cnc([N+](=O)[O-])n2)(C4)C3)no1 | Trypanosoma cruzi | reporter translation, Renilla luciferase mRNA translation | cell-free extract | 40 µM | baseline: DMSO | inhibition | -6.8% |
| C[C@H](CCC(C)(C)O)[C@H]1CC[C@H]2[C@@H]3CC=C4C[C@@](C)(O)CC[C@]4(C)[C@H]3CC[C@]12C | Glutamate NMDA receptor; GRIN1/GRIN2B (GRIN1/GRIN2B, Homo sapiens, UniProt Q05586+Q13224, A549C) | positive allosteric modulator, two-electrode voltage clamp | Xenopus oocytes expressing GluN2B-A549C | 10 µM, 0.02% cremophor, added: 100 µM glutamate and glycine | baseline: without compound | current response | 121 ± 2.8% |
| COc1ccc(CCNCc2ccc(OCc3ccc(Cl)nc3)c(OC)c2)cc1OC | Trypanosoma cruzi | reporter translation, Renilla luciferase mRNA translation | cell-free extract | 40 µM | baseline: DMSO | inhibition | -11.6% |
| Cc1ccc(N2CCN(Cc3cccnc3Oc3ccc(-c4c(C)c(=O)[nH]c(=O)n4C)c(C)c3)CC2)cc1C | ADRA2C | binding, radioligand binding | – | added: [3H]rauwolscine | baseline: Ki alpha2B over Ki alpha2C | selectivity ratio | 2 |
| CCn1nnc(Br)c1CNS(=O)(=O)c1cccc(Cl)c1O | malate dehydrogenase | enzyme activity, inhibitor | – | 200 µM, pH 7.0, 1% DMSO, aggregation counter-screen | – | remaining activity | 112% |
| CC[C@@H]1[C@H](F)C(=O)N[C@@H]1COc1nccc2cc(C(N)=O)c(OC)cc12 | Mitogen-activated protein kinase kinase kinase 4 (MAP3K4, Homo sapiens, UniProt Q9Y6R4) | ATP-site probe binding, ActivX profiling | THP-1 cell lysate | 0.04 mM, Lys2 site | – | inhibition | -5.7% |

| SMILES | tested on | test | system | conditions | scale | endpoint | value |
| --- | --- | --- | --- | --- | --- | --- | --- |
| CC(=O)Oc1ccccc1C(=O)O | Voltage-dependent P/Q-type calcium channel subunit alpha-1A | ion current, antagonist, automated patch clamp | – | – | – | IC30 | > 30 µM |
| CCCCC[C@H](O)/C=C/[C@H]1[C@H](O)CC(=O)[C@@H]1C/C=C\CCCC(=O)O | Prostaglandin E2 receptor EP1 subtype (PTGER1, Homo sapiens, UniProt P34995, S69A) | IP1 accumulation, agonist | AD293 | 1 h, EP1 S69A mutant | – | Emax | 105 ± 4.14% |
| C=CC(=O)N1CCC(COCC(=O)N2CCN(c3nc(-c4cnc(N)nc4C(F)F)nc(N4CCOC[C@@H]4C)n3)CC2)CC1 | Serine/threonine-protein kinase haspin (HASPIN, Homo sapiens, UniProt Q8TF76) | KINOMEscan | – | 1 µM | – | remaining binding | 71% |
| N[C@@H]1C[C@@]1(F)c1ccccc1 | tyramine oxidase (Arthrobacter sp.) | substrate, Lineweaver-Burk plot | – | – | – | kcat | 0.12 ± 0.02 s⁻¹ |
| Nc1ncnc2c1ncn2[C@@H]1O[C@H](COP(=O)(O)CP(=O)(O)OP(=O)(O)O)[C@@H](O)[C@H]1O | P2X purinoceptor 1 (P2RX1, Homo sapiens, UniProt P51575, E282A) | saturation binding | HEK293 | 1 nM | – | specific binding | 46.5 CCPM and 40.5 CCPM |
| O=C(O)C1=CCNCC1 | BEST1 | whole-cell patch clamp | HEK293 transiently expressing channel | concentration not given, membrane potential 40 mV | – | current density | 42.6 pA/pF and 37.5 pA/pF and 18.6 pA/pF and 18.5 pA/pF and 55.6 pA/pF and 13.7 pA/pF |
| Cc1cc(Oc2ncccc2CN2CCN(c3ccccc3O)CC2)ccc1-c1c(C)c(=O)[nH]c(=O)n1C | ADRA2C | binding, radioligand binding | – | added: [3H]rauwolscine | baseline: Ki alpha2B over Ki alpha2C | selectivity ratio | 9 |
| Cn1cc(-c2ccc(-c3cncc(Cl)c3N3CCC4(CCNC4=O)CC3)cc2)cn1 | COLO 205 | gene expression, microarray, refers to: TFRC mRNA | – | concentration not given, 2 h | baseline: untreated cells | log2 fold change | -2.34 |
| Clc1ccc2c(c1)c1ccccc1n2CC1CO1 (centres unmarked) | UCHL1 | covalent, intact protein LC-MS | – | 12.5 µM | – | labelling | 11.2% |
| O=S(=O)(NCc1ccnn1C1CC1(F)F)c1cccc(Cl)c1O (centres unmarked) | malate dehydrogenase | enzyme activity, inhibitor | – | 200 µM, pH 7.0, 1% DMSO, aggregation counter-screen | – | remaining activity | 122% |
| C#CCCC1(CC[C@H](NC(=O)NCCCCCCNC(=O)NCCNC(=O)COc2cccc([C@@H](CCc3ccc(OC)c(OC)c3)OC(=O)[C@@H]3CCCCN3C(=O)C(=O)C(C)(C)CC)c2)C(N)=O)N=N1.O=C(O)C(F)(F)F | Peptidyl-prolyl cis-trans isomerase FKBP1A (FKBP1A, Homo sapiens, UniProt P62942) | photoaffinity labeling, in-gel fluorescence, refers to: Alexa Fluor 647 click label | – | 10 µM, UV irradiation 365 nm | higher = more labeling | probe labeling fluorescence | 51900 a.u. |
| CC(=NNc1nc(Cl)c(C#N)c(Cl)c1Cl)c1ccccc1 | UCHL1 | covalent, intact protein LC-MS | – | 12.5 µM | – | labelling | 3.23% |
| O=C(c1ccc(C(=O)N2CCC(N3CCCC3)CC2)c(Nc2ccccc2)c1)N1CCC(N2CCCC2)CC1 | Lethal(3)malignant brain tumor-like protein 3 (Homo sapiens, UniProt Q96JM7) | FRAP | human cells | 1 µM | – | diffusion coefficient | 0.051 µm2/s |
| CC(=O)Nc1ccc(NC(=O)C(C#N)=Cc2cc(F)ccc2F)cc1 | UCHL1 | covalent, intact protein LC-MS | – | 12.5 µM | – | labelling | 37.4% |
| Cc1ccc(CNC(=O)Cn2cc(CSc3nc4ccccc4[nH]3)nn2)cc1 | DNA topoisomerase I (calf thymus) | enzyme activity, inhibitor | Caco-2 | 50, 100, 500 ppm, 30 min, 37 °C | – | geometric mean inhibition | 53% |
| COc1c(Cl)cc(Cl)cc1C=C(C#N)C(N)=O | UCHL1 | covalent, intact protein LC-MS | – | 12.5 µM | – | labelling | 40.6% |
| Oc1ccccc1-c1n[nH]cc1-c1ccnc2ccccc12 | Serine/threonine-protein kinase BUR1 (CRK1, Candida albicans, UniProt Q9Y7W4) | kinase binding, MIB/MS competition | Candida albicans lysate | 1 µM | baseline: DMSO, negative = stronger binding | log2 fold change | -0.03 |
| Cc1cccc(Cc2cnc(NC(=O)CCl)s2)c1 | UCHL1 | covalent, intact protein LC-MS | – | 12.5 µM | – | labelling | 46.3% |
| [H]/N=C(/N)NCC(=O)O | Sodium- and chloride-dependent taurine transporter (SLC6A6, Homo sapiens, UniProt P31641, L306A) | binding, microscale thermophoresis | – | 61 nM, room temperature, added: 50 nM labelled protein | higher = more binding | normalised MST signal | -0.0623 |

Some of these lines once more:
| SMILES | tested on | test | system | conditions | scale | endpoint | value |
| --- | --- | --- | --- | --- | --- | --- | --- |
| COc1ccc(CCNCc2ccc(OCc3ccc(Cl)nc3)c(OC)c2)cc1OC | Trypanosoma cruzi | reporter translation, Renilla luciferase mRNA translation | cell-free extract | 40 µM | baseline: DMSO | inhibition | -11.6% |
| Cc1c(C(=O)Nc2ccccc2C(=O)O)oc2c1C(O)CC(C)(C)C2 (centres unmarked) | Beta-1,4-galactosyltransferase 1 (B4GALT1, Homo sapiens, UniProt P15291) | enzyme activity, inhibitor, UDP-Glo | – | 100 µM | lower means stronger inhibition | luminescence | 67800 a.u. |
